Measurements of several laboratories.
Numbers after ± are the reported error.

Structure (SMILES)	tested on	assay	test system	conditions	how to read	measurement	result
COCCN(C)C(=O)c1ccc(C2CCCCC2)cc1	–	liver microsome stability	human liver microsomes	1 µM, without NADPH	–	hepatic clearance	3.9 mL/min/kg
CC(=O)OC[C@@]1(C)[C@H]2CC[C@@H]3CN(CC(C)C)[C@@H](C4=CCOC4=O)C[C@H]3[C@]2(C)CC[C@H]1OC(C)=O	Human coronavirus 229E	cytopathic effect	MRC5	25 µM, corrected for cytotoxicity	–	inhibition	-5.9%
O=C(NCCN1CCCC1=O)c1ccc(C2CCCCC2)cc1	–	hepatocyte stability	cryopreserved human hepatocytes	1 µM	–	hepatic clearance	18 mL/min/kg
O=c1[nH]c2ncsc2c(=O)n1O	Digitaria adscendens	glasshouse pot	–	750 g/ha, 21 days, pre-emergence	–	inhibition	0%
Fc1ccc(-c2nc3n(c2-c2ccncc2)CCS3)cc1	Trypanosoma brucei brucei	cell growth	–	concentration not given, PKIS HTS	–	inhibition	7.7%
Cc1cc(OC(C)C)ccc1C(=O)C(C)(C)NC(=O)c1sccc1C	Botrytis cinerea	conidial germination	B05.10	100 µg/mL	–	inhibition	100%
CC(=O)OC[C@@]1(C)[C@H]2CC[C@@H]3CN(Cc4ccccc4C)[C@@H](C4=CCOC4=O)C[C@H]3[C@]2(C)CC[C@H]1OC(C)=O	Human coronavirus 229E	cytopathic effect	MRC5	25 µM, corrected for cytotoxicity	–	inhibition	76.3%
COC[C@H]1O[C@@H]2O[C@H]3[C@H](OC)[C@@H](OC)[C@@H](O[C@H]4[C@H](OC)[C@@H](OC)[C@@H](O[C@H]5[C@H](OC)[C@@H](OC)[C@@H](O[C@H]6[C@H](OC)[C@@H](OC)[C@@H](O[C@H]7[C@H](OC)[C@@H](OC)[C@@H](O[C@H]8[C@H](OC)[C@@H](OC)[C@@H](O[C@H]1[C@H](OC)[C@H]2OC)O[C@@H]8COC)O[C@@H]7COC)O[C@@H]6COC)O[C@@H]5COC)O[C@@H]4COC)O[C@@H]3COC	Escherichia coli	LuxR reporter, antagonist	DH5α sensor strain	200 µM, together with: OHHL 200 nM	–	inhibition	4 ± 4%
CC(=O)c1ccc(C(=O)O)cc1	Lactobacillus acidophilus	cell survival	–	100 µM, 24 h	reference: DMSO	inhibition	27%
Cc1nc2[nH]c(=O)n(O)c(=O)c2s1	Digitaria adscendens	glasshouse pot	–	1500 g/ha, 21 days, pre-emergence	–	inhibition	0%
CN(C)CCOc1ccc(-c2nc(-c3ccncc3)c(-c3ccc4c(c3)CC/C4=N\O)[nH]2)cc1	Trypanosoma brucei brucei	cell growth	–	concentration not given, PKIS HTS	–	inhibition	38.5%
CCc1nc2[nH]c(=O)n(O)c(=O)c2s1	Digitaria adscendens	glasshouse pot	–	750 g/ha, 21 days, pre-emergence	–	inhibition	0%
CN1CCC(C(=O)Nc2n[nH]c3nnc(-c4ccccc4)cc23)CC1.Cl	Trypanosoma brucei brucei	cell growth	–	concentration not given, PKIS HTS	–	inhibition	20.3%
C[C@]1(CO)[C@H]2CC[C@@H]3CN(Cc4ccco4)[C@@H](C4=CCOC4=O)C[C@H]3[C@]2(C)CC[C@H]1O	Human coronavirus 229E	cytopathic effect	MRC5	25 µM, corrected for cytotoxicity	–	inhibition	-7.6%
Nc1nccc(-c2c(-c3ccc(F)cc3)ncn2C2CCNCC2)n1	Trypanosoma brucei brucei	parasite growth, inhibitor	–	concentration not given, PKIS high-throughput screen	–	inhibition	99.8%
C[C@]1(CO)[C@H]2CC[C@@H]3CN(Cc4cccs4)[C@@H](C4=CCOC4=O)C[C@H]3[C@]2(C)CC[C@H]1O	Human coronavirus 229E	cytopathic effect	MRC5	25 µM, corrected for cytotoxicity	–	inhibition	23.2%
Cl.c1ccc(-c2nc3n(c2-c2ccc4c(c2)OCO4)CCC3)nc1	Trypanosoma brucei brucei	cell growth	–	concentration not given, PKIS HTS	–	inhibition	49.6%
CC1(C)OC[C@@]2(C)[C@H]3CC[C@@H]4CN(Cc5ccccc5)[C@@H](C5=CCOC5=O)C[C@H]4[C@]3(C)CC[C@H]2O1	Human coronavirus 229E	cytopathic effect	MRC5	25 µM, corrected for cytotoxicity	–	inhibition	12.1%
